# Measurements pooled from the literature.
# Each numbered part is a random draw from the data of one study; scales do not carry over between parts.

# Study 1 — method: protein-binding microarray; molecule type: double-stranded DNA, one strand shown; medium: in vitro; tested at: 250 nM; setting: 60-bp whole probe; added: salmon DNA 0.4 mg/ml; relative to: random background probes; direction: higher = stronger binding
# Target: Interferon regulatory factor 5, full length, phosphomimetic (IRF5, Homo sapiens, UniProt Q13568-2, residues 1-514, K96S/S451D/S453D/S456D/S462D)
Strand,log fluorescence [z-score]
GCCTAGCACGACGGCTCCGGTTTCGGGACGTGCTAGGTCTTGATTCGCTTGACGCTGCTG,2.54
GCCTAGCACGACGGTATCGATTTTCGGGACGTGCTAGTCTTGATTCGCTTGACGCTGCTG,5.38
GCCTAGCACTTAGGTTTCCTTATACTTTAGTGCTAGGTCTTGATTCGCTTGACGCTGCTG,1.2
GCCTAGCACTTAGGTCTCCCTCTCCTTTAGTGCTAGGTCTTGATTCGCTTGACGCTGCTG,-0.151

# Study 2 — method: protein-binding microarray; molecule type: double-stranded DNA, one strand shown; medium: in vitro; tested at: not given; direction: higher = stronger binding
# Target: Hepatocyte nuclear factor 3-beta, forkhead domain (FOXA2, Homo sapiens, UniProt Q9Y261, residues 142-269)
# Setting: k-mer, scored over probes, only values ≥0.25
# Target sequence (chain): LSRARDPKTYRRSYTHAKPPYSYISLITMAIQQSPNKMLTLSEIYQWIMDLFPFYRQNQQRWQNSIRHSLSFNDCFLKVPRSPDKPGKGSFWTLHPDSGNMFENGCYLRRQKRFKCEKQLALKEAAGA
Strand,E-score
GCACAACA,0.267
ATATTTGA,0.272
GCAAATAC,0.253
AGATAACG,0.263
ATACAATC,0.287
AGTGTTAA,0.275
AATGATAG,0.263

# Study 3 — method: protein binding microarray; molecule type: double-stranded DNA, one strand shown; medium: in vitro; tested at: not given; relative to: not given; direction: higher = stronger binding
# Target: Histone acetyltransferase KAT6A, winged helix 1, GST fusion (KAT6A, Homo sapiens, UniProt Q92794, residues 1-85)
# Setting: 8-mer, flanks averaged, mean of 2 arrays, mostly near background
# Construct (chain): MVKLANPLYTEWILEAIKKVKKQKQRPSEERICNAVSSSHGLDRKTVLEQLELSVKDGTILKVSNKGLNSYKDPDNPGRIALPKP
Strand,E-score
CGACTCAA,-0.197
AGAAGAGG,-0.0459
AGATCGGG,0.0686
TCGTTTCA,-0.0849

# Single results of other studies
Molecule,target,test,system,conditions,how to read,endpoint,result
"PhoQ, residues 284 288 289 292 302 303 SSTMSV","PhoP, residues 12 14 15 18 19 LHSVW (Escherichia coli, UniProt P23836)","Sort-seq, measured: YFP reporter",E. coli,"PhoQ-PhoP variant library, added: 10 µM Mg2+","relative to: high Mg2+ state, higher = stronger signaling",fold induction,9.29

# A few entries again (study 3):
Strand,E-score
AGAAGAGG,-0.0459
